# Measurements from different studies.
# Compare with care: the assays were run in different laboratories. ± marks the error that the study gave.
# Sequence of UniProt P33240 (whole entry, unmodified, looked up): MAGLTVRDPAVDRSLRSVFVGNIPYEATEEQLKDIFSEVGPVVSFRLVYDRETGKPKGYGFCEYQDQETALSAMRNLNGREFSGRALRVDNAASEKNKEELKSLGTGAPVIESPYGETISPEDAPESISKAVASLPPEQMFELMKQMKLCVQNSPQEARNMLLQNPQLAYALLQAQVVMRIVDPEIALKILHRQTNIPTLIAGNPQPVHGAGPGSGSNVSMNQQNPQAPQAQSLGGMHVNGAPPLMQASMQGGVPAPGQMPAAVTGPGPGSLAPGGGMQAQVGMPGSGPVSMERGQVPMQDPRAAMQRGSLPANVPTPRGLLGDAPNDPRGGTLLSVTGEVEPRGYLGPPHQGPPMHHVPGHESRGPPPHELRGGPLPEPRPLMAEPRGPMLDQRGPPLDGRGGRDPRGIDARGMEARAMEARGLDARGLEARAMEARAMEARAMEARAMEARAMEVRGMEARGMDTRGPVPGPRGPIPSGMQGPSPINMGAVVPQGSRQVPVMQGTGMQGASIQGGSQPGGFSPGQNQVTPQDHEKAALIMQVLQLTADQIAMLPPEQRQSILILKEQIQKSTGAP
# Sequence of UniProt O51941 (whole entry, looked up): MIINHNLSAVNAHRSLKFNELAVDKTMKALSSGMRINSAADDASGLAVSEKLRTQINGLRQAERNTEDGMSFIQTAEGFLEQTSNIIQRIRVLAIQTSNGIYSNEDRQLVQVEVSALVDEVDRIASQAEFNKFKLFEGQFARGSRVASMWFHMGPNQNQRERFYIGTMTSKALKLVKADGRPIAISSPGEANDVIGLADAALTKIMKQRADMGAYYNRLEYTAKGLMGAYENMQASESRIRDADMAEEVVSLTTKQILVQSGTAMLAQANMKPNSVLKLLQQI
Substance,target or system,test,test system,setting,how to read,measurement,result
GGGAGUCGACCGACCAGAAUGAUUGUUGUGUGUAUUGGGUGGCGGUAUGUGCGUCUACAUCUAGACUCAU (XNA; 2'-fluoro pyrimidines),"flaB 1-283 (Leptospira interrogans, UniProt O51941)",pull-down,modified nucleic acid,,,binding,binds
UUAUGUUU (ssRNA),"CSTF2 1-107 (Homo sapiens, UniProt P33240)",NMR titration,RNA,27 °C,,binding,binds
insulin human,,refers to: UCP2 mRNA,"EcoHIV-infected mouse, brain","i.p., dose not given",baseline: PBS,fold change,1.04
aspterric acid,,root length,Arabidopsis thaliana Col-0 seeds,"6.25 µg/mL, seed germination",baseline: water control,inhibition,89.3%
GTCTTTAATAATTAAACTAGTGTCTTGACAGATGTAAACAACAGGTATAAAC (dsDNA),"niaR 1-174 K97R (Streptococcus mutans, UniProt Q8DVX8)",EMSA,"double-stranded DNA, one strand shown",,,binding,binds
CAACTGGGTTTCAGGCGAAACATTCGGTCATG (dsDNA),"nalD full length assumed (Pseudomonas aeruginosa, UniProt Q9HY46)",EMSA,"double-stranded DNA, one strand shown",,,binding,binds
nonaarginine,PorA peptide pore,"peptide binding, planar bilayer single-channel recording",,"0.5 µM, pH 7.4, -35 mV, cis side, 150 mM KCl",,kon,42 ± 4 µM⁻¹ s⁻¹
RNA 1 CACCCGUGCAAAAAUGCAGGGGUCUAAAACUGAGCGGAUAACCUCUCUAUGG / RNA 2 GGGUUCGUACCAUAGAGAGGUUAUCCGAUCACCGAGAUCG (crRNA/target DNA; mismatch at position 4),"Cas13d full length assumed R295A/H300A/R849A/H854A (Eubacterium siraeum, UniProt B0MS50)",EMSA,,added: EDTA 20 mM,,binding,binds
hexaarginine,PorA peptide pore,"peptide binding, planar bilayer single-channel recording",,"0.5 µM, pH 7.4, -15 mV, cis side, 150 mM KCl",,kon,26 ± 3 µM⁻¹ s⁻¹
TTTATAAAAAACCAATATATGTCTTGACACATGTAAAAAACGTTGTATAATG (dsDNA),"niaR 1-174 (Streptococcus mutans, UniProt Q8DVX8)",EMSA,"double-stranded DNA, one strand shown",,,binding,binds
ATTAGTTTGTATGCAAACCATT (dsDNA),"MarR-family transcriptional regulator 1-147 (Clostridioides difficile, UniProt A0A9R0BIW1)",EMSA,"double-stranded DNA, one strand shown",,,binding,binds
AUUUUAUGUUUCAGGU (ssRNA),"CSTF2 1-107 R46E (Homo sapiens, UniProt P33240)",ITC,RNA,27 °C,,binding,no binding
